Published values pooled from the literature.
Every numbered part comes from another study and shows a few of its results, in no order.
UniProt Q12866, sequence (whole entry, looked up): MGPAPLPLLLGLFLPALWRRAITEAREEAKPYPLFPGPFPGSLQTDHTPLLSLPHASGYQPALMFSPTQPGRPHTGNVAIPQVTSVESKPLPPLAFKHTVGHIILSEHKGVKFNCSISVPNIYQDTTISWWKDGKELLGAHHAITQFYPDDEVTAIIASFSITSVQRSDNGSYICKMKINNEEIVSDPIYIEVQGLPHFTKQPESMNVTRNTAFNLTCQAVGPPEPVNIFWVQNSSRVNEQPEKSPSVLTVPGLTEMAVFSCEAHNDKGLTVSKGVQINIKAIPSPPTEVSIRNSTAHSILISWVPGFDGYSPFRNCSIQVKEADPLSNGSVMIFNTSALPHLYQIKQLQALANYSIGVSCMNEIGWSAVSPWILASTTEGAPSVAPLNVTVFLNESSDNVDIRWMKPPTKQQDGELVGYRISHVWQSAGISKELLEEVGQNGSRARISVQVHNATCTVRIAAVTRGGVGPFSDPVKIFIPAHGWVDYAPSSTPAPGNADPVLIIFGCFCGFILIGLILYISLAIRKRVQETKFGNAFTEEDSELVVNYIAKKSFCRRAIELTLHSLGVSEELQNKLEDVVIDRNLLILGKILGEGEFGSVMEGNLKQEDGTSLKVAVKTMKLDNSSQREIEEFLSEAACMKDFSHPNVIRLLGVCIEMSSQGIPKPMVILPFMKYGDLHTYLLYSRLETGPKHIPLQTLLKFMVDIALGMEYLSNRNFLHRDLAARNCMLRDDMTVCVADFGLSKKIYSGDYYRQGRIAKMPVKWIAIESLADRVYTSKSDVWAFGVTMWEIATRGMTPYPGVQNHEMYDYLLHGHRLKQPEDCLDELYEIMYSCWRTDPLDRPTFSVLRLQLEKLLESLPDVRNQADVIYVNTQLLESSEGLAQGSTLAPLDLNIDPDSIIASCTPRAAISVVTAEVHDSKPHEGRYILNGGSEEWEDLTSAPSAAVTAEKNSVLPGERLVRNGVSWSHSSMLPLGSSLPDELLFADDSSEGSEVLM
UniProt P49190, sequence (whole entry, looked up): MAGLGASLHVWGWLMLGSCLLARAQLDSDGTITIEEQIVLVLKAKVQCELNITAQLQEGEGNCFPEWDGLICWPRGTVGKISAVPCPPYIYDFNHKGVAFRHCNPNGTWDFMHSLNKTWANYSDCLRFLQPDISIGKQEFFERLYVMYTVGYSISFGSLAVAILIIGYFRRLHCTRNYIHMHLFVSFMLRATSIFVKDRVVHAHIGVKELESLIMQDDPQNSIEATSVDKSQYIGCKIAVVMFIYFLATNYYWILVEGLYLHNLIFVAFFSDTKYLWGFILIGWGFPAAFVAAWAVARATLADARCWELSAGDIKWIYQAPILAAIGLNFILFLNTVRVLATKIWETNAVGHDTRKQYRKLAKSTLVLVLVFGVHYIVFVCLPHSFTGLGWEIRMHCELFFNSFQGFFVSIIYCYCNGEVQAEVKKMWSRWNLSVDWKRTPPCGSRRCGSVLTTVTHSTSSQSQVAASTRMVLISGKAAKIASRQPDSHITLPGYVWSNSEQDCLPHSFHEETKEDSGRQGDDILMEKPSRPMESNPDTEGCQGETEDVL
UniProt P09769, sequence (whole entry, looked up): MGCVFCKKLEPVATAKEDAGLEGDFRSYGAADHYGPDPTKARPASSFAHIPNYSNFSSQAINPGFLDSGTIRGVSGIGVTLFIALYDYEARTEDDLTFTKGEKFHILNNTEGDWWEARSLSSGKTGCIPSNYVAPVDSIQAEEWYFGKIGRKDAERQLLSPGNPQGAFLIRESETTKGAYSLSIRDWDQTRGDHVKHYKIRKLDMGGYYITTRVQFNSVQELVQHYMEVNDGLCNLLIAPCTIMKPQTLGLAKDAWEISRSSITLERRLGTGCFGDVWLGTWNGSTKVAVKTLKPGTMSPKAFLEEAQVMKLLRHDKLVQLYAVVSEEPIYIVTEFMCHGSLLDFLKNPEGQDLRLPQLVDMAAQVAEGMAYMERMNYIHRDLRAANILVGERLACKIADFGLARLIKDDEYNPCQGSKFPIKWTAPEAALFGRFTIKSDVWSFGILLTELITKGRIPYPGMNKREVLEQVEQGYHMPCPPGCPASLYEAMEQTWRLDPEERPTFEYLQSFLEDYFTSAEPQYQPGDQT
UniProt P10398, sequence (whole entry, looked up): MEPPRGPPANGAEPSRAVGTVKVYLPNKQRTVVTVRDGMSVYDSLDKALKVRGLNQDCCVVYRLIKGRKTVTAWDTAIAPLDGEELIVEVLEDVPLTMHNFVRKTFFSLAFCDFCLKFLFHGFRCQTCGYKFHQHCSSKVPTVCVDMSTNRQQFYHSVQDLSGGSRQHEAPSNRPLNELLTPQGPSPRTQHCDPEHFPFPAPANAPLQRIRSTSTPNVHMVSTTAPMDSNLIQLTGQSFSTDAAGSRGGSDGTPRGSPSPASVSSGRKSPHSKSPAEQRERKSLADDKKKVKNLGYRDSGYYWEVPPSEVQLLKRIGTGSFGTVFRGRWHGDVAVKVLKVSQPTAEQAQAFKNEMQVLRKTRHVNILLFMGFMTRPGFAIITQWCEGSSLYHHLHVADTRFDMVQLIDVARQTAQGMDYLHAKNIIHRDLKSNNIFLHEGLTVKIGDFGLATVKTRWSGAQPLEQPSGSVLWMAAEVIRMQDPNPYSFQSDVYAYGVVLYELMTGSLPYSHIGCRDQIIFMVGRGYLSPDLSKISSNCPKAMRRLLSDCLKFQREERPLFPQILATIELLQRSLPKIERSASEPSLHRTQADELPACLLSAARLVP
UniProt P21730, sequence (whole entry, looked up): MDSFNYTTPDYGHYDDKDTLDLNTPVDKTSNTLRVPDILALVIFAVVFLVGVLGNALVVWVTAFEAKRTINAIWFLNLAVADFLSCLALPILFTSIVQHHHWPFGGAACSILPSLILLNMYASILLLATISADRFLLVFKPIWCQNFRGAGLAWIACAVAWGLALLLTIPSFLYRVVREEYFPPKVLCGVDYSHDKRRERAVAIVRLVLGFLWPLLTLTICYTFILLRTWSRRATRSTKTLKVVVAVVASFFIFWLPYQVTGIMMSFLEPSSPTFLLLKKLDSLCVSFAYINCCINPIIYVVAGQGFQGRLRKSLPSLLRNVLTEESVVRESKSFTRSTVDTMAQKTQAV
UniProt Q99788, sequence (whole entry, looked up): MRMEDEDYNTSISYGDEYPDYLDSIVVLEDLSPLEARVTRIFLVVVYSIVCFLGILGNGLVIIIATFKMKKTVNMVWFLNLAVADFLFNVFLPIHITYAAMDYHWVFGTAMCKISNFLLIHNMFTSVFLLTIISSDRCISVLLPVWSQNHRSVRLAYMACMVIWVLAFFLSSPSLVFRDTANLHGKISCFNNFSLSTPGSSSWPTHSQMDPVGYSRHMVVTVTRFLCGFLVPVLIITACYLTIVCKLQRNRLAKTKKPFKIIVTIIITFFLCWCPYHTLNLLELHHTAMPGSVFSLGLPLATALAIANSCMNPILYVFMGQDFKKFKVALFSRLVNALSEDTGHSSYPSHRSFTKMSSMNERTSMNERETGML
UniProt Q8TDV0, sequence (whole entry, looked up): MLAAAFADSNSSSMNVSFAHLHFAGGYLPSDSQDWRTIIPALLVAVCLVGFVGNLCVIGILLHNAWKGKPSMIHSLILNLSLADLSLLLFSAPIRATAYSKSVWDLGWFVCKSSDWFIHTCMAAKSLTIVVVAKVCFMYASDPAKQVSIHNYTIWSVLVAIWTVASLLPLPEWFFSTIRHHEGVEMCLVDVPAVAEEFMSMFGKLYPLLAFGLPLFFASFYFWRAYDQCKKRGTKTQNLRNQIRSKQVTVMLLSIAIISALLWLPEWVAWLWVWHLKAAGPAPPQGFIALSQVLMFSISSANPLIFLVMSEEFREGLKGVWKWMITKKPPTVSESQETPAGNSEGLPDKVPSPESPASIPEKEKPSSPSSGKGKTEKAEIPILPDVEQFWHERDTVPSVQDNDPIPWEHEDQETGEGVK
UniProt Q9UHD2, sequence (whole entry, looked up): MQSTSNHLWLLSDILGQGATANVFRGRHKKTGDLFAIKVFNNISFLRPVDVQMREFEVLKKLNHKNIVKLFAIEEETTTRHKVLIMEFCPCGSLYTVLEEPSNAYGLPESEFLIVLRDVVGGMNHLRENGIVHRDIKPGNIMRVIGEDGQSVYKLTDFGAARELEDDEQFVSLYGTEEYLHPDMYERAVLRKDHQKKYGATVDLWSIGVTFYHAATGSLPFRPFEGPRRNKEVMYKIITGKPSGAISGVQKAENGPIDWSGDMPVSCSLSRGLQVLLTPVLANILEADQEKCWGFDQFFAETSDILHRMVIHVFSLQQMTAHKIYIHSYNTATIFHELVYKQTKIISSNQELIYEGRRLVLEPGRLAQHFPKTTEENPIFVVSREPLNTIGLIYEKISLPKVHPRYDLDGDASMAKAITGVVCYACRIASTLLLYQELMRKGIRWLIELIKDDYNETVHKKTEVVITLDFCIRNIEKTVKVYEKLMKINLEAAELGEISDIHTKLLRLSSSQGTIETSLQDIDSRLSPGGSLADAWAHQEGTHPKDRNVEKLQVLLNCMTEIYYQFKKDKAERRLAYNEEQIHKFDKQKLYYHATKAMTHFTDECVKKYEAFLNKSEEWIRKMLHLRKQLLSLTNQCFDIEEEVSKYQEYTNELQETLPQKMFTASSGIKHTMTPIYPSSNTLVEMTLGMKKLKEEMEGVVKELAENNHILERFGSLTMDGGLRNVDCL
UniProt Q99679, sequence (whole entry, looked up): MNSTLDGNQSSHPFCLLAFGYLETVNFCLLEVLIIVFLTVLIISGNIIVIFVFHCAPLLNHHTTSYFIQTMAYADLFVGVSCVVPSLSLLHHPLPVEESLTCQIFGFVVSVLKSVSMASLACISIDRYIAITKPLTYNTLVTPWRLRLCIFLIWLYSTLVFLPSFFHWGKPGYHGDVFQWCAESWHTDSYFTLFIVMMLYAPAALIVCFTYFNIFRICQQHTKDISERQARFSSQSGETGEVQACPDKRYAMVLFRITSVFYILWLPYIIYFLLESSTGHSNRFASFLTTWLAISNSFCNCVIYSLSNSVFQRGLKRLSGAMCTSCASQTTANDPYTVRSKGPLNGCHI

Series 1 — read-out: cell-free assay; method: competition with immobilised ligand; tested at: 1 µM
SMILES: O=C(NC[C@@H]1[C@H]2CN(C(=O)OCc3cc(C(F)(F)F)cc(C(F)(F)F)c3)C[C@@H]12)c1ccc2[nH]nnc2c1
| target | remaining binding |
| --- | --- |
| FGR (Homo sapiens, UniProt P09769) | 88% |
| SLK (Homo sapiens, UniProt Q9H2G2) | 100% |
| ULK1 (Homo sapiens, UniProt O75385) | 92% |
| IKBKB (Homo sapiens, UniProt O14920) | 88% |
| FGFR3 (Homo sapiens, UniProt P22607) | 82% |
| COQ8A (Homo sapiens, UniProt Q8NI60) | 100% |
| PIP5K1C (Homo sapiens, UniProt O60331) | 98% |

Series 2 — cell line: HaCaT; tested at: 100 µM; time: 36 h
| SMILES | viability [%] |
| --- | --- |
| COc1ccc2cc1Oc1ccc(cc1)C[C@H]1c3cc(c(OC)cc3CCN1C)Oc1c(OC)c(OC)cc3c1[C@H](C2)N(C)CC3 | 6.16 |
| NC12CC3CC(CC(C3)C1)C2 | 92.4 |
| N[C@@H](CC(=O)N1CCn2c(nnc2C(F)(F)F)C1)Cc1cc(F)c(F)cc1F | 81.9 |
| CC1(C)[C@@H](OC(=O)CCC(=O)O)CC[C@]2(C)[C@H]3C(=O)C=C4[C@@H]5C[C@@](C)(C(=O)O)CC[C@]5(C)CC[C@@]4(C)[C@]3(C)CC[C@@H]12 | 17.6 |
| COc1cc(/C=C/C(=O)N2CCN(CC(=O)N3CCCC3)CC2)cc(OC)c1OC | 87.5 |
| Cc1onc(-c2c(Cl)cccc2Cl)c1C(=O)N[C@@H]1C(=O)N2[C@@H]1SC(C)(C)[C@@H]2C(=O)O | 98.9 |

Series 3 — read-out: β-arrestin recruitment; action: agonist; method: PRESTO-Tango; tested at: 10 µM; reference: untreated
SMILES: N=C(N)NC(=O)c1cnn(-c2cccc3ncccc23)c1C1CC1
| target | fold over basal |
| --- | --- |
| PTH2R (Homo sapiens, UniProt P49190) | 1.13 |
| Adhesion G protein-coupled receptor E5 (Homo sapiens, UniProt P48960) | 0.88 |
| Probable G-protein coupled receptor 21 (GPR21, Homo sapiens, UniProt Q99679) | 0.76 |
| CMKLR1 (Homo sapiens, UniProt Q99788) | 0.47 |
| Mas-related G-protein coupled receptor member E (MRGPRE, Homo sapiens, UniProt Q86SM8) | 0.98 |
| G-protein coupled receptor 151 (GPR151, Homo sapiens, UniProt Q8TDV0) | 1.43 |
| C5AR1 (Homo sapiens, UniProt P21730) | 0.97 |

Series 4 — read-out: enzyme activity; action: inhibitor; tested at: 0.5 µM; reference: control
SMILES: Nc1nc(Nc2ccc(S(N)(=O)=O)cc2)nn1C(=S)Nc1c(F)cccc1F
| target | remaining activity [%] |
| --- | --- |
| MERTK (Homo sapiens, UniProt Q12866) | 14.8 |
| MAP2K2 (Homo sapiens, UniProt P36507) | 96.6 |
| ARAF (Homo sapiens, UniProt P10398) | 129 |
| ACVR1B (Homo sapiens, UniProt P36896) | 92.2 |
| FGFR1 (Homo sapiens, UniProt P11362) | 6.59 |
| ULK2 (Homo sapiens, UniProt Q8IYT8) | 4.73 |
| LCK (Homo sapiens, UniProt P06239) | 23.6 |
| MAP3K5 (Homo sapiens, UniProt Q99683) | 1.12 |
| TBK1 (Homo sapiens, UniProt Q9UHD2) | 10.3 |
| EPHA3 (Homo sapiens, UniProt P29320) | 85.9 |
| GRK7 (Homo sapiens, UniProt Q8WTQ7) | 96.6 |
| MST1R (Homo sapiens, UniProt Q04912) | 56 |
| WEE1 (Homo sapiens, UniProt P30291) | 100 |

For quick reference, copied from above (series 3):
| target | fold over basal |
| --- | --- |
| Adhesion G protein-coupled receptor E5 (Homo sapiens, UniProt P48960) | 0.88 |
| G-protein coupled receptor 151 (GPR151, Homo sapiens, UniProt Q8TDV0) | 1.43 |
| Mas-related G-protein coupled receptor member E (MRGPRE, Homo sapiens, UniProt Q86SM8) | 0.98 |
| PTH2R (Homo sapiens, UniProt P49190) | 1.13 |
